Results pooled from the literature.
Each numbered part is a random draw from the data of one study; scales do not carry over between parts. Several values in a cell are separate wells, animals, samples, runs or records.
Sequence of UniProt P42336 (whole entry, unmodified, looked up): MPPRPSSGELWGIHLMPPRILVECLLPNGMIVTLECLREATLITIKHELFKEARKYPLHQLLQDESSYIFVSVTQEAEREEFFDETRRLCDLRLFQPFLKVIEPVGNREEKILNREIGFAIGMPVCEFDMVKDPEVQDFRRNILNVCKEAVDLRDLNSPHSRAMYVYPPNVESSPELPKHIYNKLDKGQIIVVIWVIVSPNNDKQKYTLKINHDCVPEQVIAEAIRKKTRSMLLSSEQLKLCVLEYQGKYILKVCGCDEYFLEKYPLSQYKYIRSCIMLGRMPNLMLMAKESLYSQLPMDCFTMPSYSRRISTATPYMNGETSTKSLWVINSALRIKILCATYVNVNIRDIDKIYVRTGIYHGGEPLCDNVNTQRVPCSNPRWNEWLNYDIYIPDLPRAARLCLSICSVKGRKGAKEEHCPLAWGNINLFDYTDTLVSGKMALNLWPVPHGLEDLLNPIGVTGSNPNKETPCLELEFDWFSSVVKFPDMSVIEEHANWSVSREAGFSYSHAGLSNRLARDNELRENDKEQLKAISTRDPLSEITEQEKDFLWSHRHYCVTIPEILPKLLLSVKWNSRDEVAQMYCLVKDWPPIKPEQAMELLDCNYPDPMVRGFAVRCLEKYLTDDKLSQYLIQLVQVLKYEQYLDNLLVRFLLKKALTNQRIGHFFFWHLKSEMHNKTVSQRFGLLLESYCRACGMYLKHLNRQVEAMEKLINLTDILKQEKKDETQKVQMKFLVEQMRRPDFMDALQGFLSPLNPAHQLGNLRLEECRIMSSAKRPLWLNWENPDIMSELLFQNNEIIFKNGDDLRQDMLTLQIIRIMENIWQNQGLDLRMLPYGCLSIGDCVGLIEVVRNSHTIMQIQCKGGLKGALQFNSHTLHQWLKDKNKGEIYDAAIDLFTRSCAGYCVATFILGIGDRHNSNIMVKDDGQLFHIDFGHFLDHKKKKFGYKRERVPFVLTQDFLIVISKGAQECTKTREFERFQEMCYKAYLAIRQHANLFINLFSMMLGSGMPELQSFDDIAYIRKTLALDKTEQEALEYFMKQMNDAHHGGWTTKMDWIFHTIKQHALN
Sequence of UniProt P37173 (whole entry, looked up): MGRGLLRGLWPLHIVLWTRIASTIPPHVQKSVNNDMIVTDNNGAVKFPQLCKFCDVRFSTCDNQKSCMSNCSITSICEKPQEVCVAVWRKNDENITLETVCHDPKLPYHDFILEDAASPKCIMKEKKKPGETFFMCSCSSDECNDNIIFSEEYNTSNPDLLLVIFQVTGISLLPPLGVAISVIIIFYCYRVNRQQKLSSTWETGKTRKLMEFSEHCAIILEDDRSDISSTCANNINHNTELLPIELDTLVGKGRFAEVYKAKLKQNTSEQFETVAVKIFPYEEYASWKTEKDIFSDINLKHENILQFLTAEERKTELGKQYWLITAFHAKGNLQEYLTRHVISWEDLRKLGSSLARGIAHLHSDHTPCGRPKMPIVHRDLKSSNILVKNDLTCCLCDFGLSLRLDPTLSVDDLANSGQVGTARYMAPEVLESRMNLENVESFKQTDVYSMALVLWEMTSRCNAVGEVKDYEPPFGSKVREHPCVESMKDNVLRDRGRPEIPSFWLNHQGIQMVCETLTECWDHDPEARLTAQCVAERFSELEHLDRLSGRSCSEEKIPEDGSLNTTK
Sequence of UniProt P35626 (whole entry, looked up): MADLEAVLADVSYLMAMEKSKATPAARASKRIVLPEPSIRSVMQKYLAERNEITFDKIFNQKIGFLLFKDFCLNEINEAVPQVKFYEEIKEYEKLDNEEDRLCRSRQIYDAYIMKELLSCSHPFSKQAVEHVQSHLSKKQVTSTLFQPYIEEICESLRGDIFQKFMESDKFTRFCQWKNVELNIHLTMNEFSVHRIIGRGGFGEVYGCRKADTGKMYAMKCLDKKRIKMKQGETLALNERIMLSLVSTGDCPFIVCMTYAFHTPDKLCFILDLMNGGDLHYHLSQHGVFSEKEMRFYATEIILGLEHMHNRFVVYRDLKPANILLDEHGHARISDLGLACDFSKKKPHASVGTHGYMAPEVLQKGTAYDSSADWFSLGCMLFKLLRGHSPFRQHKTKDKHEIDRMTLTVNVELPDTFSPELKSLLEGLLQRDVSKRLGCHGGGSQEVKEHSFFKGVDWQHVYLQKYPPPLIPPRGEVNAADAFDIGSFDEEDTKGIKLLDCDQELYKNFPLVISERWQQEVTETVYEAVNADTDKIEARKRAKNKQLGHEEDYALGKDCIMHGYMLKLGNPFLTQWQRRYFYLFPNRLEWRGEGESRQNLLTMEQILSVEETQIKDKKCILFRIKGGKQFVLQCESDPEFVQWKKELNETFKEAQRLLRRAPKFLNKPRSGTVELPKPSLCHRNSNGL
Sequence of UniProt Q9Y5S2 (whole entry, looked up): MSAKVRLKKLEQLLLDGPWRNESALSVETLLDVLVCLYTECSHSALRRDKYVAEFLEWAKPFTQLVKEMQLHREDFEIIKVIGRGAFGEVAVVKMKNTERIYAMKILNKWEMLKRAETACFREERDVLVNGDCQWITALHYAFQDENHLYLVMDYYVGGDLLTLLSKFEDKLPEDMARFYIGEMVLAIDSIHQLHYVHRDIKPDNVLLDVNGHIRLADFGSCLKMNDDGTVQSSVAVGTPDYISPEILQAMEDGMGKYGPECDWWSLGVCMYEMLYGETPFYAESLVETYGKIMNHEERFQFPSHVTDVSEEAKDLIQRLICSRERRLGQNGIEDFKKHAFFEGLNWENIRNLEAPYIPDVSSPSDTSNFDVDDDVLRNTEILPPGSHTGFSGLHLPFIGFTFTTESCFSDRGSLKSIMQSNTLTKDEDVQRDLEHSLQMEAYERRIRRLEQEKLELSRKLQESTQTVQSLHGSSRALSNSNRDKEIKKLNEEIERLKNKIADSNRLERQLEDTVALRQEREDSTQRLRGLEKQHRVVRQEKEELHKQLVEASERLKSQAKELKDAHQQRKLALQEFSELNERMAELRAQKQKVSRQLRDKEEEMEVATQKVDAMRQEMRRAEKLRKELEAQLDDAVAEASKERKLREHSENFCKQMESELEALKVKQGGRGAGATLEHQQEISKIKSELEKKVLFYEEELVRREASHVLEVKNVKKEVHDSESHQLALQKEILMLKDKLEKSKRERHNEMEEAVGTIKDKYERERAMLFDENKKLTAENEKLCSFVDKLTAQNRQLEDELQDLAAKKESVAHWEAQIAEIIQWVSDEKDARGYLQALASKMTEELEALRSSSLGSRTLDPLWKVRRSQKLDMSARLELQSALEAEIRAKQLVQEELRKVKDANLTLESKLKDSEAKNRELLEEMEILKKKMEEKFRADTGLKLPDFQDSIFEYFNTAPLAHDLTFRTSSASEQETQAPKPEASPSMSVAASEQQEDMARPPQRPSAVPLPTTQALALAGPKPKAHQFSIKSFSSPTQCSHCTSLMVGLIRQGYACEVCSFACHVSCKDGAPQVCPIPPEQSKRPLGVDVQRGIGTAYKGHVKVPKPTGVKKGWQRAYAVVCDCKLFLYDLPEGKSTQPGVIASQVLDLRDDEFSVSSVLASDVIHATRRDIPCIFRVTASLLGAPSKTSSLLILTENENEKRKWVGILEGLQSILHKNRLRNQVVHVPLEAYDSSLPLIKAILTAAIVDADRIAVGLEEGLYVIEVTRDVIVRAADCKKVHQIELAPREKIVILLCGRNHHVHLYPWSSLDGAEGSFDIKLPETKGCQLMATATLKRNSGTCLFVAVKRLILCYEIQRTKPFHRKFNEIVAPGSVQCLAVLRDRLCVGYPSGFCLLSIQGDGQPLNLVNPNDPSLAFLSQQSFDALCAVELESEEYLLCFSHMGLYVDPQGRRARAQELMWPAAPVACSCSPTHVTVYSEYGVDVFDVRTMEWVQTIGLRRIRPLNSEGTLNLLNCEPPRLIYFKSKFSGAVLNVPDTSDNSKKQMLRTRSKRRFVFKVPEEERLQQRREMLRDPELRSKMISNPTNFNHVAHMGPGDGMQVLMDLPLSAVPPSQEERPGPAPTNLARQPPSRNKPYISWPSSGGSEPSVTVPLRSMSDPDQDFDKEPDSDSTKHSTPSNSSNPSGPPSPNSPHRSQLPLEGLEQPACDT
Sequence of UniProt Q12852 (whole entry, looked up): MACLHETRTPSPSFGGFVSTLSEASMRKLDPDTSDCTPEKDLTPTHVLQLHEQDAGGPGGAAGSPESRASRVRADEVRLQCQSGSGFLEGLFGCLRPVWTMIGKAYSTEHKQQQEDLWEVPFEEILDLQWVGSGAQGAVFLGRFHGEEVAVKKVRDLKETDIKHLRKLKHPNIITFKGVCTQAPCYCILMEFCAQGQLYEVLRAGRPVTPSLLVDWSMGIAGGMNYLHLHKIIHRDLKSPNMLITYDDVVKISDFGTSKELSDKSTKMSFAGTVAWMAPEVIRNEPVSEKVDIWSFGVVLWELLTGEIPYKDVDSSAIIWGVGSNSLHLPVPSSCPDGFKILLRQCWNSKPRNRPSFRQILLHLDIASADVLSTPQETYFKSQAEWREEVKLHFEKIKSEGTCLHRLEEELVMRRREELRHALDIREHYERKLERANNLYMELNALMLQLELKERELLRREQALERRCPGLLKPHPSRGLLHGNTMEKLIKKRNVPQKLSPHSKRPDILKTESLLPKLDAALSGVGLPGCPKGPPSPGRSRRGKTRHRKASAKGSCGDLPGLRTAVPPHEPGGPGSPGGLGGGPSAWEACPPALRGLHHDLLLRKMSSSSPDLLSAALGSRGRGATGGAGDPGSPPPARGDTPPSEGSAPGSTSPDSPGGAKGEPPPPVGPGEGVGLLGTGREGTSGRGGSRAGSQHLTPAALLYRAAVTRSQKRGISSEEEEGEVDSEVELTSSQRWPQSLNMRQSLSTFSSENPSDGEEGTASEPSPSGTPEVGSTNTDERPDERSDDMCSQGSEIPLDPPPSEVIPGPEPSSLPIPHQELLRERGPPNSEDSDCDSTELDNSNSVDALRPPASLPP

Block 1
Sample: hydrocarbon/water
The logD of CCC[C@@H]1NC(=O)CN(CC)C(=O)[C@H](CC(C)C)NC(=O)Cn2cc(nn2)CN(C)C(=O)[C@H](CC(C)C)NC(=O)[C@H](C)N(C)C(=O)[C@H](CC)NC(=O)[C@H](C)N(C)C(=O)[C@H]2CCCN2C1=O is reported as -2.49.
CCCCCN1CC(=O)NC(CC(C)C)C(=O)N(C)C(C)C(=O)NC(C)C(=O)N2CCCC2C(=O)N(Cc2ccc3c(c2)OCO3)CC(=O)NC(CC(C)C)C(=O)N(C)C(C)C(=O)NC(CC(C)C)C(=O)N2CCCC2C1=O (stereo not drawn) has a logD of 2.75.
CC[C@H]1C(=O)N[C@@H](CC(C)C)C(=O)N2CCC[C@@H]2C(=O)N(C)[C@@H](Cc2ccc(O)cc2)C(=O)N[C@@H](CC(C)C)C(=O)N(C)[C@H](C)C(=O)N1C has a logD of -0.209.
With CCC[C@@H]1NC(=O)CSC[C@@H](C(=O)OCC)N(C)C(=O)[C@H](CC(C)C)NC(=O)[C@@H](C)N(C)C(=O)[C@H](CC(C)C)NC(=O)[C@H](C)N(C)C(=O)[C@@H]2CCCN2C(=O)[C@H](CC(C)C)NC(=O)CN(CCC)C1=O the logD was 1.07.
CCCN1CC(=O)N[C@@H](CC2CCCCC2)C(=O)N2CCC[C@@H]2C(=O)N(C)[C@@H](C)C(=O)N[C@@H](CC2CCCCC2)C(=O)N(C)[C@@H](C)C(=O)N[C@@H](CC(C)C)C(=O)N(C)Cc2cn(nn2)CC(=O)N[C@@H](CC(C)C)C1=O gave a logD of 1.96.
The logD of CC[C@@H]1C(=O)N(C)[C@@H](CC(C)C)C(=O)N[C@@H](CC(C)C)C(=O)N2CCC[C@@H]2C(=O)N(C)[C@@H](CC2CCCCC2)C(=O)N[C@@H](CC(C)C)C(=O)N1C is reported as 3.21.
CC(C)C[C@@H]1NC(=O)[C@H](C)N(C)C(=O)[C@H](CC2CCCCC2)NC(=O)[C@H](C)N(C)C(=O)[C@H]2CCCN2C(=O)[C@H](CC(C)C)NC(=O)CN(CC(C)C)C(=O)[C@H](CC(C)C)NC(=O)Cn2cc(nn2)CN(C)C1=O has a logD of 1.4.
The logD of CC[C@H]1C(=O)N[C@@H](CC(C)C)C(=O)N(C)[C@@H](C)C(=O)N[C@@H](CC(C)C)C(=O)N(C)Cc2cn(nn2)CC(=O)N[C@@H](CC(C)C)C(=O)N(C)[C@@H](C)C(=O)N[C@@H](CC(C)C)C(=O)N2CCC[C@@H]2C(=O)N1C is reported as 0.0181.
CCOC(=O)[C@@H]1CSCC(=O)N[C@H](CC)C(=O)N(C)[C@@H](C)C(=O)N[C@@H](CC(C)C)C(=O)N2CCC[C@@H]2C(=O)N(CC)CC(=O)N[C@@H](CC(C)C)C(=O)N(C)[C@H](C)C(=O)N[C@@H](CC(C)C)C(=O)N1C has a logD of 0.481.

Block 2
Compound: C[C@@H]1CN(c2ccc(-c3cc(C(=O)NCCOCCOCCOCCOCCOCCOCCNC(=O)/C=C/c4[nH]cc(C(=O)N[C@@H](CC(N)=O)c5ccc(F)c(Cl)c5)c4-c4ccc(Cl)cc4F)ccc3F)cc2NC(=O)c2ccc(F)cc2C(F)(F)F)C[C@H](C)N1C
Technique: ATPlite
MV4-11 expressing HiBiT-WDR5; RPMI with 10% FBS; 10000 nM, 24 h — viability: 101% and 86.1% and 105%.
For MV4-11; 4.64 µM, 5 days; relative to: DMSO: viability read 37% and 39% and 30.8%.
It gave 110% and 109% and 104% for viability (MV4-11 expressing HiBiT-WDR5; RPMI with 10% FBS; 1510 nM, 24 h).
The viability was 109% and 89.4% and 107% (MV4-11 expressing HiBiT-WDR5; RPMI with 10% FBS; 88.1 nM, 24 h).
It gave 113% and 108% and 98.1% for viability (MV4-11 expressing HiBiT-WDR5; RPMI with 10% FBS; 585 nM, 24 h).
It gave 99.4% and 107% and 79.4% for viability (MV4-11 expressing HiBiT-WDR5; RPMI with 10% FBS; 34.2 nM, 24 h).

Block 3
Compound: CN1CCN(C(=O)c2ccc(NC(=O)Nc3ccc(N(C)c4ccnc(Nc5ccc(CS(C)(=O)=O)cc5)n4)cc3)cc2)CC1
Observed: binding
Tested at: 1 µM
For Serine/threonine-protein kinase 38-like (STK38L, Homo sapiens, UniProt Q9Y2H1): remaining binding read 100%.
Myosin light chain kinase 2, skeletal/cardiac muscle (MYLK2, Homo sapiens, UniProt Q9H1R3); competition with immobilised ligand — remaining binding: 36%.
It gave 0% for remaining binding (Serine/threonine-protein kinase PAK 3 (PAK3, Homo sapiens, UniProt O75914)).
The remaining binding was 30% (Mitogen-activated protein kinase kinase kinase 12 (MAP3K12, Homo sapiens, UniProt Q12852)).
The remaining binding was 100% (Phosphatidylinositol 4,5-bisphosphate 3-kinase catalytic subunit alpha isoform (PIK3CA, Homo sapiens, UniProt P42336, H1047Y)).
Phosphatidylinositol 4,5-bisphosphate 3-kinase catalytic subunit alpha isoform (PIK3CA, Homo sapiens, UniProt P42336, C420R) — remaining binding: 100%.
The remaining binding was 26% (TGF-beta receptor type-2 (TGFBR2, Homo sapiens, UniProt P37173); competition with immobilised ligand).
It gave 38% for remaining binding (Inhibitor of nuclear factor kappa-B kinase subunit epsilon (IKBKE, Homo sapiens, UniProt Q14164)).
RAC-alpha serine/threonine-protein kinase (AKT1, Homo sapiens, UniProt P31749) — remaining binding: 100%.
It gave 2.4% for remaining binding (BMP-2-inducible protein kinase (BMP2K, Homo sapiens, UniProt Q9NSY1)).
Ribosomal protein S6 kinase alpha-5, C-terminal kinase domain (RPS6KA5, Homo sapiens, UniProt O75582); competition with immobilised ligand — remaining binding: 87%.

Block 4
SMILES: CCCOc1ccc([C@H]2[C@H](C(=O)O)[C@@H](c3ccc4c(c3)OCO4)CN2CC(=O)Nc2c(CC)cccc2CC)cc1
Observed: cell-free assay
Technique: competition with immobilised ligand
Tested at: 1 µM
It gave 65% for remaining binding (Mitogen-activated protein kinase kinase kinase 6 (MAP3K6, Homo sapiens, UniProt O95382)).
Proto-oncogene tyrosine-protein kinase receptor Ret (RET, Homo sapiens, UniProt P07949) — remaining binding: 86%.
It gave 98% for remaining binding (Serine/threonine-protein kinase Chk1 (CHEK1, Homo sapiens, UniProt O14757)).
Dual specificity tyrosine-phosphorylation-regulated kinase 1B (DYRK1B, Homo sapiens, UniProt Q9Y463) — remaining binding: 100%.
For Serine/threonine-protein kinase MRCK beta (CDC42BPB, Homo sapiens, UniProt Q9Y5S2): remaining binding read 87%.
The remaining binding was 87% (Serine/threonine-protein kinase Nek1 (NEK1, Homo sapiens, UniProt Q96PY6)).
Phosphatidylinositol 4,5-bisphosphate 3-kinase catalytic subunit alpha isoform (PIK3CA, Homo sapiens, UniProt P42336, E542K) — remaining binding: 75%.
For Proto-oncogene tyrosine-protein kinase ROS (ROS1, Homo sapiens, UniProt P08922): remaining binding read 98%.
The remaining binding was 69% (Tyrosine-protein kinase ABL1, phosphorylated (ABL1, Homo sapiens, UniProt P00519, M351T)).
The remaining binding was 92% (Testis-specific serine/threonine-protein kinase 1 (TSSK1B, Homo sapiens, UniProt Q9BXA7)).
It gave 73% for remaining binding (G protein-coupled receptor kinase 3 (GRK3, Homo sapiens, UniProt P35626)).
For Platelet-derived growth factor receptor alpha (PDGFRA, Homo sapiens, UniProt P16234): remaining binding read 80%.
Cyclin-dependent kinase 13 (CDK13, Homo sapiens, UniProt Q14004) — remaining binding: 45%.
LIM domain kinase 1 (LIMK1, Homo sapiens, UniProt P53667) — remaining binding: 100%.
The remaining binding was 92% (Receptor-type tyrosine-protein kinase FLT3 (FLT3, Homo sapiens, UniProt P36888, D835H)).
Activin receptor type-1 (ACVR1, Homo sapiens, UniProt Q04771) — remaining binding: 100%.
It gave 100% for remaining binding (Fibroblast growth factor receptor 2 (FGFR2, Homo sapiens, UniProt P21802)).
It gave 94% for remaining binding (Transient receptor potential cation channel subfamily M member 6 (TRPM6, Homo sapiens, UniProt Q9BX84)).
It gave 77% for remaining binding (Tyrosine-protein kinase ABL1, phosphorylated (ABL1, Homo sapiens, UniProt P00519, T315I)).
Serine/threonine-protein kinase 24 (STK24, Homo sapiens, UniProt Q9Y6E0) — remaining binding: 84%.
For Serine/threonine-protein kinase 32A (STK32A, Homo sapiens, UniProt Q8WU08): remaining binding read 93%.
Casein kinase I isoform alpha (CSNK1A1, Homo sapiens, UniProt P48729) — remaining binding: 72%.

Some of these lines once more (block 3):
Phosphatidylinositol 4,5-bisphosphate 3-kinase catalytic subunit alpha isoform (PIK3CA, Homo sapiens, UniProt P42336, C420R) — remaining binding: 100%.
The remaining binding was 26% (TGF-beta receptor type-2 (TGFBR2, Homo sapiens, UniProt P37173); competition with immobilised ligand).
Myosin light chain kinase 2, skeletal/cardiac muscle (MYLK2, Homo sapiens, UniProt Q9H1R3); competition with immobilised ligand — remaining binding: 36%.
The remaining binding was 100% (Phosphatidylinositol 4,5-bisphosphate 3-kinase catalytic subunit alpha isoform (PIK3CA, Homo sapiens, UniProt P42336, H1047Y)).
The remaining binding was 30% (Mitogen-activated protein kinase kinase kinase 12 (MAP3K12, Homo sapiens, UniProt Q12852)).
For Serine/threonine-protein kinase 38-like (STK38L, Homo sapiens, UniProt Q9Y2H1): remaining binding read 100%.
It gave 38% for remaining binding (Inhibitor of nuclear factor kappa-B kinase subunit epsilon (IKBKE, Homo sapiens, UniProt Q14164)).
It gave 0% for remaining binding (Serine/threonine-protein kinase PAK 3 (PAK3, Homo sapiens, UniProt O75914)).
